Assay results of several laboratories.
Parts stem from different laboratories: compare values within a part only.

Series 1 — method: RNA Bind-n-Seq; form: RNA; matrix: in vitro; concentration: not given; notes: RNA with constant flanks, ends assumed; baseline: input RNA pool; direction: higher = stronger binding
Target: RING finger protein unkempt homolog, zinc fingers 1-6, GST-SBP tag (UNK, Homo sapiens, UniProt Q9C0B0, residues 30-357)
Target sequence (chain): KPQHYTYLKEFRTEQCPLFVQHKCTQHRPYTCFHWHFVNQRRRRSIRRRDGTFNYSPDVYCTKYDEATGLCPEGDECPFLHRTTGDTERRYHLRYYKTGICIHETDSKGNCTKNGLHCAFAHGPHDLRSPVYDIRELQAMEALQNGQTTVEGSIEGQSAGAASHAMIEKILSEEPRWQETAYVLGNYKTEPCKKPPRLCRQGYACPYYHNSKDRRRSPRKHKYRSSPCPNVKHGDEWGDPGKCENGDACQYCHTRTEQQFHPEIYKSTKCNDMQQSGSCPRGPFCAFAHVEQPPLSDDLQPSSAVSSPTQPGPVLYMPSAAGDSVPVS
Strand | bound/input enrichment
GGGAGUUCUACAGUCCGACGAUCAAAUAUUUUGAGAAUUCAGCUGAAACAGACAUUCCAAAAAUCACCAAAAAACUAUCUCAACCCGGAGAAUCAGAGCUUUUUGCAAGUUCUGGAUCAUUUUCAUUACAGAGCUCUAUACCACAACAGAGGAUUGAGCAUCA | 0.205 ratio
GGGAGUUCUACAGUCCGACGAUCAACAACUUUCUUCAAACACUAAAUCAAGCUUGGAAUGAUCAUCAAACAGCCAUGGUGAUGAUCCGAGACAUAUUAAUGUAUAUGGACCGUGUAUAUGUACAACAGAAUAAUGUAGAAAAUCAACAGAGGAUUGAGCAUCA | 0.258 ratio
GGGAGUUCUACAGUCCGACGAUCAUAAUAAAAGCUUCCAGCAAAGAUGCCAUCAGGCUUUUGGAUUCCGUGCCUCCCACUGCCAUCCGUCACUUCAAACAAUCAGCUGAGAAGCUGAUAGAGGAGAAGGGAGCUGUGGAAGCUCAACAGAGGAUUGAGCAUCA | 0.0949 ratio

Series 2 — method: competition protein-binding microarray; form: double-stranded DNA, one strand shown; matrix: in vitro; concentration: 2 µM; together with: Pho4 competitor, 0.05 µM; direction: higher = stronger binding
Target: Centromere-binding protein 1, full length, His-tagged (CBF1, Saccharomyces cerevisiae, UniProt P17106, residues 1-351)
Chain of UniProt P17106 (whole entry, looked up): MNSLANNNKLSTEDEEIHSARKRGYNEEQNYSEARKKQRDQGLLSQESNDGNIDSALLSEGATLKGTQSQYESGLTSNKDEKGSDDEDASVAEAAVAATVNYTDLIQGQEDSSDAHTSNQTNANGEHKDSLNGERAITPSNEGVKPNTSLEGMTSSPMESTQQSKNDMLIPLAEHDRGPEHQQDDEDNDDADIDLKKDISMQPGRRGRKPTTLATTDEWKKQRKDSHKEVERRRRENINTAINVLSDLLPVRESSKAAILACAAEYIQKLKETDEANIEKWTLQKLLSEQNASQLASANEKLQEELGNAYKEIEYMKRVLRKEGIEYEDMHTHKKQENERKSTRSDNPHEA
Notes: whole 60-bp probe, lowest competitor level
Strand | fluorescence intensity
TAAGATCGTCAGTTTCACGTTCGCGGTTCGAACATGGTCTTGATTCGCTTGACGCTGCTG | 94.9 a.u.
AAAGCGGTAATTTTCCACGTGTTTTCACATATCTATGTCTTGATTCGCTTGACGCTGCTG | 858 a.u.
CTAAATCTGCGTTAGCTCGTGGTGAGTATTTGCGCGGTCTTGATTCGCTTGACGCTGCTG | 103 a.u.

Series 3 — method: protein-binding microarray; form: double-stranded DNA, one strand shown; matrix: in vitro; concentration: 2200 nM top; notes: 60-bp whole probe; together with: salmon DNA 0.4 mg/ml; baseline: random background probes; direction: higher = stronger binding
Target: Interferon regulatory factor 7, full length, phosphomimetic (IRF7, Homo sapiens, UniProt Q92985, residues 1-503, S471D/S472D/S475D/S476D/S477D/S483D/S484D/S487D)
Chain of UniProt Q92985 (whole entry, unmodified, looked up): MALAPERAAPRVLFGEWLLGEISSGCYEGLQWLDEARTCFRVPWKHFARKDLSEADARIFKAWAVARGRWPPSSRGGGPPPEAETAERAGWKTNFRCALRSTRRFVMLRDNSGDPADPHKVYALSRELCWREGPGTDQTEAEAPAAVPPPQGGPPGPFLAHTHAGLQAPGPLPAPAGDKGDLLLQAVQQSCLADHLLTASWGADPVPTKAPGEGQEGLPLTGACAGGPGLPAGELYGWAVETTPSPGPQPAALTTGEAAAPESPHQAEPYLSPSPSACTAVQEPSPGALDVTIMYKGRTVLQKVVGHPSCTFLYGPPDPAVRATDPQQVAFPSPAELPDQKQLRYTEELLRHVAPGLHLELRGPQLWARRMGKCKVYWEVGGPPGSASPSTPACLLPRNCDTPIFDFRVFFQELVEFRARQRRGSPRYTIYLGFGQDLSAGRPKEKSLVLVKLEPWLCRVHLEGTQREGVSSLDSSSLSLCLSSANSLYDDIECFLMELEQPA
Strand | fitted relative affinity [z-score]
GCCTAGCACTTAGGATTGGGGTATCGGTTAGTGCTAGTCTTGATTCGCTTGACGCTGCTG | 0.132
GCCTAGCACGCCGATATCGGGACTGGAGACGTGCTAGTCTTGATTCGCTTGACGCTGCTG | -0.0988
GCCTAGCACTTAGATTGCAGTTTCGATTAGTGCTAGGTCTTGATTCGCTTGACGCTGCTG | 5.2

Other studies, line by line
Substance | target | test | test system | conditions | how to read | quantity | value
PhoQ, residues 284 288 289 292 302 303 NLCILV | PhoP, residues 12 14 15 18 19 NNFVT (Escherichia coli, UniProt P23836) | Sort-seq, item: YFP reporter | E. coli | PhoQ-PhoP variant library, together with: 10 µM Mg2+ | baseline: high Mg2+ state, higher = stronger signaling | fold induction | 20.2

For quick reference, copied from above (series 3):
Strand | fitted relative affinity [z-score]
GCCTAGCACTTAGATTGCAGTTTCGATTAGTGCTAGGTCTTGATTCGCTTGACGCTGCTG | 5.2
